Assay results pooled from the literature.
Each numbered part is a random draw from the data of one study; scales do not carry over between parts.
Chain of UniProt P06239 (whole entry, looked up): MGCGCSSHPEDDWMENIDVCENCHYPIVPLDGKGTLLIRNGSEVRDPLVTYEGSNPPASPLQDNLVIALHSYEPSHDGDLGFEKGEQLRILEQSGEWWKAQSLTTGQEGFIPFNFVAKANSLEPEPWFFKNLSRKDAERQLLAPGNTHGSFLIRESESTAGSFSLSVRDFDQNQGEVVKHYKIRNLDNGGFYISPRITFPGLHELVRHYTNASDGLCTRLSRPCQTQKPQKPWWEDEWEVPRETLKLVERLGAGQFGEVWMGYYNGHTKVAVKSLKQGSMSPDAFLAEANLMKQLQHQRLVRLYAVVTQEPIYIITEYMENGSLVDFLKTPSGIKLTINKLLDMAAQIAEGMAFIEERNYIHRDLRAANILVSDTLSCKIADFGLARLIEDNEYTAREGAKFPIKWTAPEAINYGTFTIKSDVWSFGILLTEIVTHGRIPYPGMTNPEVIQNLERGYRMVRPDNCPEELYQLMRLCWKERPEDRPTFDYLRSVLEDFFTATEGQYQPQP
Chain of UniProt Q9Y6M4 (whole entry, looked up): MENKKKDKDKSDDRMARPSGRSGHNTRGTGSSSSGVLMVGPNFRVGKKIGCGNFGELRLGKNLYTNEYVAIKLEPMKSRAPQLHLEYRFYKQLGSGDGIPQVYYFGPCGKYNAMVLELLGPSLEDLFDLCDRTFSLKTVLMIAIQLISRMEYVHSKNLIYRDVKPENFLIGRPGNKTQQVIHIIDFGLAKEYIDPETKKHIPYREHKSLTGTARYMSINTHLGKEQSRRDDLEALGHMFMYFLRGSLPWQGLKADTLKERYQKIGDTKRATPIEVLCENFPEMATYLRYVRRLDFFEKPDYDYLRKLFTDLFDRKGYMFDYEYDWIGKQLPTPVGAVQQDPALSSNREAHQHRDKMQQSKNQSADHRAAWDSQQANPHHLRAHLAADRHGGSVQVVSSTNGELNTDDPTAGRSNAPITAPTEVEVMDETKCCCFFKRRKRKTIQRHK
Chain of UniProt Q9HC98 (whole entry, looked up): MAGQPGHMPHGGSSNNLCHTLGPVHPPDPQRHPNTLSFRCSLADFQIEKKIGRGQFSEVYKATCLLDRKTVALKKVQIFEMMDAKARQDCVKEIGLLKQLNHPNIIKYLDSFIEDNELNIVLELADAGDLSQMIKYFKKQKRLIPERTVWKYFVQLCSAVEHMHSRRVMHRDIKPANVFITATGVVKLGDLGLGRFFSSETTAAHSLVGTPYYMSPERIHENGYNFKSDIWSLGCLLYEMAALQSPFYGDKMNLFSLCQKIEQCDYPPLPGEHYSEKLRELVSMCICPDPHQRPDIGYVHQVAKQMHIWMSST
Chain of UniProt Q99683 (whole entry, looked up): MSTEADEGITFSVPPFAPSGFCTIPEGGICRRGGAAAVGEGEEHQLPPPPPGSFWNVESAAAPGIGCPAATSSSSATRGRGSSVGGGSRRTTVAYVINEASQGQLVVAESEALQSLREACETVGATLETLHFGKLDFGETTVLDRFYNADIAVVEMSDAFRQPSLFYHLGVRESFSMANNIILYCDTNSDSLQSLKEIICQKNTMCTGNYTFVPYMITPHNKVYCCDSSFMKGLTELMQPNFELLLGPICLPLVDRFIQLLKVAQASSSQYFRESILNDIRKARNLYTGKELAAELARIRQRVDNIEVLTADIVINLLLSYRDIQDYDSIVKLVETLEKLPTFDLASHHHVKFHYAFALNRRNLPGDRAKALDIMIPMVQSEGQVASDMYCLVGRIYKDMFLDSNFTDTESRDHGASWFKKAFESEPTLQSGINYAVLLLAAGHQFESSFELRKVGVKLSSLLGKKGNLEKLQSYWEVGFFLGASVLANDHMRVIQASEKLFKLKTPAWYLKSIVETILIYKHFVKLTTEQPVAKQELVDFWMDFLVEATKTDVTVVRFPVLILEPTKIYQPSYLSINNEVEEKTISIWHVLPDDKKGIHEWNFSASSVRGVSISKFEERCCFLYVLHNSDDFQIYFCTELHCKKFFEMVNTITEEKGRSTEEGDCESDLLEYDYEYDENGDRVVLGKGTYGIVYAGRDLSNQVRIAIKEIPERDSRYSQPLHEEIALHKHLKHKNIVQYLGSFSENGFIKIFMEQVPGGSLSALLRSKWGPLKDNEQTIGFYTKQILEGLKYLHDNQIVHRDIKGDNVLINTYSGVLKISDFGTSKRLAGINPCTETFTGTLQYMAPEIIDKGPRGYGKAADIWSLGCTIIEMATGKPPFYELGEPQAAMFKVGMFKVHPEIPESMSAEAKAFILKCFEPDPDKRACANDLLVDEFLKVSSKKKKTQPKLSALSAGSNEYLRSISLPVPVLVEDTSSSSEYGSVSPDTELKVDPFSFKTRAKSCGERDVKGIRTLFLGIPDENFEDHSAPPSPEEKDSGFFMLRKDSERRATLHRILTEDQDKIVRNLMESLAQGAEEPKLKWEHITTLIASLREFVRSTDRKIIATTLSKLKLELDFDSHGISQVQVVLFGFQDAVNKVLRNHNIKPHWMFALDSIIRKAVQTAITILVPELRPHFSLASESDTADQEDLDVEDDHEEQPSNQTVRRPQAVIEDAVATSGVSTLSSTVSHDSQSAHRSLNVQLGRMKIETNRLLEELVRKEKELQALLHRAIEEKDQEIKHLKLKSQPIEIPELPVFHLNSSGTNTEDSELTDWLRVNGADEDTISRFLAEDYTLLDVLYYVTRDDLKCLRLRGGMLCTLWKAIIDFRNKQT
Chain of UniProt Q6PHR2 (whole entry, looked up): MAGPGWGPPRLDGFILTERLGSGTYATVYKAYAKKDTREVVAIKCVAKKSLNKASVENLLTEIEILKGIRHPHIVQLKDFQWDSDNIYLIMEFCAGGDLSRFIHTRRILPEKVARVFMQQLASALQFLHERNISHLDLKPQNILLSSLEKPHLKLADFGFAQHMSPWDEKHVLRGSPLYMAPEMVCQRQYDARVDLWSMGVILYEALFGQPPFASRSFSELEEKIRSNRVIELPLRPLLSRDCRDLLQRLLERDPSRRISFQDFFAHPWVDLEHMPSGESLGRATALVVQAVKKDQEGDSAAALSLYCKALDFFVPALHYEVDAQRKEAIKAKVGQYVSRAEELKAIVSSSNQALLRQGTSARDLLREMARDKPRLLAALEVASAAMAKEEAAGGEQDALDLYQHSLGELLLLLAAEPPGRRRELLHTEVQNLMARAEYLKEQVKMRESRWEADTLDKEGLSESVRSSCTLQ
Chain of UniProt Q8WTQ7 (whole entry, looked up): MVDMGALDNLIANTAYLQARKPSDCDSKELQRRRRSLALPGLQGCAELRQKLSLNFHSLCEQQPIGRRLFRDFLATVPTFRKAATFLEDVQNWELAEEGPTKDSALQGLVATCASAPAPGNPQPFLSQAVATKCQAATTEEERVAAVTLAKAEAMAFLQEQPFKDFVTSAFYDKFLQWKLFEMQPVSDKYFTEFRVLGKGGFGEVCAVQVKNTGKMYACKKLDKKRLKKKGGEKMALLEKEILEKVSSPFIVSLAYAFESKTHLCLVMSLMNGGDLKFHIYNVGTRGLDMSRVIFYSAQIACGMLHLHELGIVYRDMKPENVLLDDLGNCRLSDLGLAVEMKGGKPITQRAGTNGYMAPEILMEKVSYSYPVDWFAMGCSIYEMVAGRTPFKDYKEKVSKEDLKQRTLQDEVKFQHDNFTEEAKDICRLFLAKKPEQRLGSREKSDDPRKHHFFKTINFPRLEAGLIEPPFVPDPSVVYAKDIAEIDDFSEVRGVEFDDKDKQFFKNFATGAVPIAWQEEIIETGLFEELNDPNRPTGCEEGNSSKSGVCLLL
Chain of UniProt P11362 (whole entry, looked up): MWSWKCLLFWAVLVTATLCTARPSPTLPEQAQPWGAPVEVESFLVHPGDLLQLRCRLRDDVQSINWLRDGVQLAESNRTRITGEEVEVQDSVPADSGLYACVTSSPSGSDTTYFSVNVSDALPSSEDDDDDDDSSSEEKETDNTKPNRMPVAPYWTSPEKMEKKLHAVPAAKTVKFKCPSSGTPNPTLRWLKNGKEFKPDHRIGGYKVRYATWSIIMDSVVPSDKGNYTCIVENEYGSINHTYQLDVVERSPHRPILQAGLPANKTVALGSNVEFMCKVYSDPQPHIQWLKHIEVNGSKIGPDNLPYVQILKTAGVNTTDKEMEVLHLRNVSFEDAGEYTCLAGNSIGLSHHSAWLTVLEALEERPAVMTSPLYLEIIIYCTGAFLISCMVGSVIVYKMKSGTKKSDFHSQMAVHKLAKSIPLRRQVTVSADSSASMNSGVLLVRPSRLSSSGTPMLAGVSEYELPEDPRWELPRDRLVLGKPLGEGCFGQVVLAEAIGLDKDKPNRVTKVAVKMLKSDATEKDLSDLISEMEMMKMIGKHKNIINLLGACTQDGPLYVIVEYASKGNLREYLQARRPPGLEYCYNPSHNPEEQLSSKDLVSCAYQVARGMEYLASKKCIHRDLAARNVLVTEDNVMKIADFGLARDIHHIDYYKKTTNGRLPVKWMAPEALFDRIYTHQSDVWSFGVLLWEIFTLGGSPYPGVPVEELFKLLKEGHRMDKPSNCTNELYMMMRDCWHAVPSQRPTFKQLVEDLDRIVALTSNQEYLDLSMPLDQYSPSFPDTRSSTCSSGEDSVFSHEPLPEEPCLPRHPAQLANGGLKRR

Series 1
Method: exponential regression of PRP log k'
pH: 7.0
SMILES	logD (1,9-decadiene/water)
CCCCOc1ccc(-c2ccc(C(=O)NCCCCCC(=O)N[C@H](C(=O)N3C[C@H](O)C[C@H]3C(=O)NCc3ccc(-c4scnc4C)cc3)C(C)(C)C)cc2)cc1	1.55
Cc1ncsc1-c1ccc(CNC(=O)[C@@H]2C[C@@H](O)CN2C(=O)[C@@H](NC(=O)CCCCCNC(=O)CC23C[C@H]4C[C@@H](C2)C[C@@H](C3)C4)C(C)(C)C)cc1	-0.318
Cc1ncsc1-c1ccc(CNC(=O)[C@@H]2C[C@@H](O)CN2C(=O)[C@@H](NC(=O)CCCCCOC(=O)CC(c2ccccc2)c2ccccc2)C(C)(C)C)cc1	1.35
COCC(=O)OCCCCCC(=O)N[C@H](C(=O)N1C[C@H](O)C[C@H]1C(=O)NCc1ccc(-c2scnc2C)cc1)C(C)(C)C	-3.29

Series 2
SMILES: CC(C)n1cnc(-c2ccc(F)cc2)c1-c1ncc(C(=O)Nc2ccc(N3CCN(C)CC3)cc2)[nH]1
Method: Phase 2a trial
Host: idiopathic pulmonary fibrosis patients
test	conditions	patients with adverse events
measured: urinary tract infection	60 mg once daily, grade 4 maximum intensity	0%
measured: back pain	60 mg once daily, grade 5 maximum intensity	0%
measured: reticulocyte count increased	dose not given, grade 5 maximum intensity, all arms	0%
measured: blood alkaline phosphatase increased	60 mg once daily, grade 5 maximum intensity	0%

Series 3
Structure (SMILES): FC(F)(F)c1ccc(/C=C/c2nc(COc3ccc(CCCCn4ccnn4)cc3)co2)cc1
Effect on: enzyme activity
Mode: inhibitor
Tested at: 0.5 µM
Reference: control
target	remaining activity [%]
Serine/threonine-protein kinase TBK1 (TBK1, Homo sapiens, UniProt Q9UHD2)	101
Serine/threonine-protein kinase ULK3 (ULK3, Homo sapiens, UniProt Q6PHR2)	99.5
Rhodopsin kinase GRK7 (GRK7, Homo sapiens, UniProt Q8WTQ7)	97.8
Tyrosine-protein kinase Lck (LCK, Homo sapiens, UniProt P06239)	92.1
Macrophage-stimulating protein receptor (MST1R, Homo sapiens, UniProt Q04912)	104
Serine/threonine-protein kinase TAO2 (TAOK2, Homo sapiens, UniProt Q9UL54)	105
Mitogen-activated protein kinase kinase kinase 5 (MAP3K5, Homo sapiens, UniProt Q99683)	97.2
Serine/threonine-protein kinase Nek6 (NEK6, Homo sapiens, UniProt Q9HC98)	92.6
Mitogen-activated protein kinase 3 (MAPK3, Homo sapiens, UniProt P27361)	100
Dual specificity mitogen-activated protein kinase kinase 2 (MAP2K2, Homo sapiens, UniProt P36507)	114
Casein kinase I isoform gamma-3 (CSNK1G3, Homo sapiens, UniProt Q9Y6M4)	96.7
Tyrosine-protein kinase JAK3 (JAK3, Homo sapiens, UniProt P52333)	93
MAP kinase-activated protein kinase 2 (MAPKAPK2, Homo sapiens, UniProt P49137)	97.9
Fibroblast growth factor receptor 1 (FGFR1, Homo sapiens, UniProt P11362)	101

Series 4
SMILES: O=C(Nc1cccnn1)N1CC(C/C=C/c2cncc(Oc3ccc(C(F)(F)F)cn3)n2)C1
Effect on: cell-free assay
Method: competition with immobilised ligand
Tested at: 1 µM
target	remaining binding [%]
Aurora kinase C (AURKC, Homo sapiens, UniProt Q9UQB9)	100
Hepatocyte growth factor receptor (MET, Homo sapiens, UniProt P08581, M1250T)	100
Serine/threonine-protein kinase TAO3 (TAOK3, Homo sapiens, UniProt Q9H2K8)	82
Mitogen-activated protein kinase kinase kinase 19 (MAP3K19, Homo sapiens, UniProt Q56UN5)	90
Phosphatidylinositol 4,5-bisphosphate 3-kinase catalytic subunit alpha isoform (PIK3CA, Homo sapiens, UniProt P42336, Q546K)	92

Series 5
Target: Calcium/calmodulin-dependent protein kinase type II subunit alpha (CAMK2A, Homo sapiens, UniProt Q9UQM7)
Chain of UniProt Q9UQM7 (whole entry, looked up): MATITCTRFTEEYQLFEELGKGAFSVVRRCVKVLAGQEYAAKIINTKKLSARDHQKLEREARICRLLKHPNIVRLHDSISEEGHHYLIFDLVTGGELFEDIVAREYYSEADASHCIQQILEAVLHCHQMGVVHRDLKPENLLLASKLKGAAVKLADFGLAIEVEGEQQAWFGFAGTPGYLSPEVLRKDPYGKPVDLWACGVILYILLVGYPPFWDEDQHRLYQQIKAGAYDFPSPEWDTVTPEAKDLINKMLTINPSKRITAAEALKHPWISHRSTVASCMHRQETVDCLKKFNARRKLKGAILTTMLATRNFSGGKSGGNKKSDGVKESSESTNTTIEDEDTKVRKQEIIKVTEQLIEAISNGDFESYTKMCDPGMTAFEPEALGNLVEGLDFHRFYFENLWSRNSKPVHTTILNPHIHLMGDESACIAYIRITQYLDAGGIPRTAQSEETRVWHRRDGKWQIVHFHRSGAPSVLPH
Effect on: enzyme activity
Mode: inhibitor
Tested at: 10 µM
SMILES	inhibition
CCOC(=O)[C@H](CCc1ccccc1)N[C@@H](C)C(=O)N1CC2(C[C@H]1C(=O)O)SCCS2	-6%
Oc1cnc2c(O)cccc2c1	-9%
CN[C@@H](C)[C@H]1[C@H](O)C[C@@]2(C)[C@@H]3CC[C@H]4C(C)(C)[C@@H](NC)CC[C@@]45C[C@@]35CC[C@]12C	26%
CCCCCCCCC=O	-8%
